Published values of several laboratories.
Several values in a cell are separate wells, animals, samples, runs or records. ± marks the error that the study gave.
FGFR2: Fibroblast growth factor receptor 2 (FGFR2, Homo sapiens, UniProt P21802)
UniProt P21802, sequence (whole entry, looked up): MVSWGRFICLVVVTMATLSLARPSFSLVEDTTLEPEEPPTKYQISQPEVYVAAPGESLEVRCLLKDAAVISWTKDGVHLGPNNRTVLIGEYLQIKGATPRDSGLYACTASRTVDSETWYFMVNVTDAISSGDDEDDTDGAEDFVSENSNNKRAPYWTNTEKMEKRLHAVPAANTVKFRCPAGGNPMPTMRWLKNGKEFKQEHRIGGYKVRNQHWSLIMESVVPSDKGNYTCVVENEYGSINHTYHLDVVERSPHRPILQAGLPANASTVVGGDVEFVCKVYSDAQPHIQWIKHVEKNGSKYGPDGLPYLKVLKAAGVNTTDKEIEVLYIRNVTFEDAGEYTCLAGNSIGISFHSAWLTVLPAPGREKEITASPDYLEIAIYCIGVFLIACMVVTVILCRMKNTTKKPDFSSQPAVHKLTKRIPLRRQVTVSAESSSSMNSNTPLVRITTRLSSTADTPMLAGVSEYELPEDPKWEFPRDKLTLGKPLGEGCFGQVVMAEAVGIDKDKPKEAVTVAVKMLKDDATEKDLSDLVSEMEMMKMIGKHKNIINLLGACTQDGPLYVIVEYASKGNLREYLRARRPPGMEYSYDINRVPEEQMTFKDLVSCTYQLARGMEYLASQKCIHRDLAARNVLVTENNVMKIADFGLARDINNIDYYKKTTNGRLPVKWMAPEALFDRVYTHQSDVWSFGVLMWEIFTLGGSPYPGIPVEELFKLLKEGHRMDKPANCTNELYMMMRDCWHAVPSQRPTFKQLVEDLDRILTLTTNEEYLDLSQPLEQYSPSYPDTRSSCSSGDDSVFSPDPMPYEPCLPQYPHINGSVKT
UniProt P47811, sequence (whole entry, looked up): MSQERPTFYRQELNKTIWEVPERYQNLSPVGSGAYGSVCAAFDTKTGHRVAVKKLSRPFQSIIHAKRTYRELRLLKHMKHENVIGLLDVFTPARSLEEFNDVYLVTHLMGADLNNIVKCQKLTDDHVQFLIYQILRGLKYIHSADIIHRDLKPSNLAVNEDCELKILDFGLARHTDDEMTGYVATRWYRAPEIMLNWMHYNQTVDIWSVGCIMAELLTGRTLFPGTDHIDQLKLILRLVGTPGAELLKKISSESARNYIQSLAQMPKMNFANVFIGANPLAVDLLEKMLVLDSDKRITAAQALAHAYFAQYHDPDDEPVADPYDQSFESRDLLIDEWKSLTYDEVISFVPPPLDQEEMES
UniProt P51686, sequence (whole entry, looked up): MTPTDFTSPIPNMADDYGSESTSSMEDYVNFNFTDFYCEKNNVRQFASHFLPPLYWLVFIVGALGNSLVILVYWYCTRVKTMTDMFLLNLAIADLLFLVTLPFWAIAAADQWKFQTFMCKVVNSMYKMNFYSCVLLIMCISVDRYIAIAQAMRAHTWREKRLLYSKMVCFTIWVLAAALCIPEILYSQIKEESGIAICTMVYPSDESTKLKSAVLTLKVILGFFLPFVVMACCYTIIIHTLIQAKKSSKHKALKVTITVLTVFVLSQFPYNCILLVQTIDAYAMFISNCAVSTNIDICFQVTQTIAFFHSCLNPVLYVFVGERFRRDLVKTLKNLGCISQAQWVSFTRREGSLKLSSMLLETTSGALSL
UniProt P22411, sequence (whole entry, looked up): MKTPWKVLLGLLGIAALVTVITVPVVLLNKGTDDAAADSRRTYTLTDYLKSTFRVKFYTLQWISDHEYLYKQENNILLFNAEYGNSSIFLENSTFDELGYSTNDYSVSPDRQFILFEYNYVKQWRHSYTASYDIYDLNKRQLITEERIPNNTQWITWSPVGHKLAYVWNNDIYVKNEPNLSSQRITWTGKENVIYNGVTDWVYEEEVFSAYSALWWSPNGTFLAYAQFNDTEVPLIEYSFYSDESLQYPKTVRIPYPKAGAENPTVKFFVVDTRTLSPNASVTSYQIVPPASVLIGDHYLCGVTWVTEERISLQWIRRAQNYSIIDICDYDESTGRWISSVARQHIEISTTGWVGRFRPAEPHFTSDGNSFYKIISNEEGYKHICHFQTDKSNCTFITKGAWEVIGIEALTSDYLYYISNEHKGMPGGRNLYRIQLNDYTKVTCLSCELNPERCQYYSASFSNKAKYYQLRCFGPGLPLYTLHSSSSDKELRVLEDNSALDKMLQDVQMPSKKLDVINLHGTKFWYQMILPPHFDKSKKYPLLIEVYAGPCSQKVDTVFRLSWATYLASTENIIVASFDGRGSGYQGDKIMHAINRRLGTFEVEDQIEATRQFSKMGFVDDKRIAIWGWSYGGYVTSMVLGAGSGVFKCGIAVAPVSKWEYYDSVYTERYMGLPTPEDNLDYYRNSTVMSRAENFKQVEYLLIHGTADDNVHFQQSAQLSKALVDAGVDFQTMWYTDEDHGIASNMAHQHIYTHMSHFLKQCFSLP
UniProt P00743, sequence (whole entry, looked up): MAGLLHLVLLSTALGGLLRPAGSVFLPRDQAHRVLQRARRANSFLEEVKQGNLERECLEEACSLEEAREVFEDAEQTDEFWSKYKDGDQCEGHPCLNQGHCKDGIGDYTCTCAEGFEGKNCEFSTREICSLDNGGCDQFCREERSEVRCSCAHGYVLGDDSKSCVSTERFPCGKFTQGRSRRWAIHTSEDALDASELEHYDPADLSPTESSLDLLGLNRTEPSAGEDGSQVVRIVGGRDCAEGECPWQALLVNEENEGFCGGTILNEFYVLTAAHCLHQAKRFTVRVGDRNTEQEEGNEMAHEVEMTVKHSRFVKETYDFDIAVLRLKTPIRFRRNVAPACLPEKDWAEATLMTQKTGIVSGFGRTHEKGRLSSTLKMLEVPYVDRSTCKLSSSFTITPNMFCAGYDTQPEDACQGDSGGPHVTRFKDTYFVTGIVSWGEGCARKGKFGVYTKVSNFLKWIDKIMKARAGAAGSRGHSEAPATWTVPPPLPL
UniProt Q04771, sequence (whole entry, unmodified, looked up): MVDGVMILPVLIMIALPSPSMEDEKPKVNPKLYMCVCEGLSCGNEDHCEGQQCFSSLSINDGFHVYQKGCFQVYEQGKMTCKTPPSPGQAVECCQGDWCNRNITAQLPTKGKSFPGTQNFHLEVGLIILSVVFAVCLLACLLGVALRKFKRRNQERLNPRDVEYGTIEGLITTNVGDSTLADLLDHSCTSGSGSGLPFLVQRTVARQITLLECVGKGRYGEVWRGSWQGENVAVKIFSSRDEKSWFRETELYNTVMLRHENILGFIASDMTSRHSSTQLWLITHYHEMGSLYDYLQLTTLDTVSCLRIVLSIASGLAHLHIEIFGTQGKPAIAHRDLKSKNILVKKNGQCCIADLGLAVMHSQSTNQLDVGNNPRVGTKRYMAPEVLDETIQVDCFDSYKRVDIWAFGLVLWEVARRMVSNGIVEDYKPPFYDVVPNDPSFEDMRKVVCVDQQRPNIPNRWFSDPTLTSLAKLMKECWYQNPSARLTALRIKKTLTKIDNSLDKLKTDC
UniProt P28907, sequence (whole entry, looked up): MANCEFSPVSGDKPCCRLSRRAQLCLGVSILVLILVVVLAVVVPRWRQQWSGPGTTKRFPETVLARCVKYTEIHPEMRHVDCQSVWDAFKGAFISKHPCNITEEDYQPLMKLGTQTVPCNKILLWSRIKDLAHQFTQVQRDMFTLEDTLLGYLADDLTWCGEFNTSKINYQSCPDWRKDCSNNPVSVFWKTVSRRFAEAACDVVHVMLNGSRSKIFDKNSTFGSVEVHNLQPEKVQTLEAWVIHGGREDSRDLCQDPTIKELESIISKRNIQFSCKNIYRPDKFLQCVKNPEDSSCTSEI
UniProt Q05BQ5, sequence (whole entry, looked up): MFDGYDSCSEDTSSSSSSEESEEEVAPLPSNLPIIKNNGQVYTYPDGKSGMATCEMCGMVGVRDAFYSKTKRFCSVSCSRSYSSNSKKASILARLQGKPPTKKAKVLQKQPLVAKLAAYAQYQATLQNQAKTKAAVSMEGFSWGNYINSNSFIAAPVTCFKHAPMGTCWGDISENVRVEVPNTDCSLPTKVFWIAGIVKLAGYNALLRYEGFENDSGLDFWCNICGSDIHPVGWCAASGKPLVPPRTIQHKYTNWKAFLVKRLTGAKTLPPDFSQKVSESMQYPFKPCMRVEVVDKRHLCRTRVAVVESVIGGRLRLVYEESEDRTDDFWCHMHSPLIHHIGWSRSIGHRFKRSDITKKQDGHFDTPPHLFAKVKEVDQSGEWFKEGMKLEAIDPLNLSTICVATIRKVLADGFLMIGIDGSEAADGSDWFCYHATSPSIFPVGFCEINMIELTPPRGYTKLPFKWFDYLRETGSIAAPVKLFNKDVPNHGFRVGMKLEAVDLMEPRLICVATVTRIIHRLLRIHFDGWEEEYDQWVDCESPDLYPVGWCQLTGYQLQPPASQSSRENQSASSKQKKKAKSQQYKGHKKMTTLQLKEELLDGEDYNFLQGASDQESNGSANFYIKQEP
UniProt P05091, sequence (whole entry, looked up): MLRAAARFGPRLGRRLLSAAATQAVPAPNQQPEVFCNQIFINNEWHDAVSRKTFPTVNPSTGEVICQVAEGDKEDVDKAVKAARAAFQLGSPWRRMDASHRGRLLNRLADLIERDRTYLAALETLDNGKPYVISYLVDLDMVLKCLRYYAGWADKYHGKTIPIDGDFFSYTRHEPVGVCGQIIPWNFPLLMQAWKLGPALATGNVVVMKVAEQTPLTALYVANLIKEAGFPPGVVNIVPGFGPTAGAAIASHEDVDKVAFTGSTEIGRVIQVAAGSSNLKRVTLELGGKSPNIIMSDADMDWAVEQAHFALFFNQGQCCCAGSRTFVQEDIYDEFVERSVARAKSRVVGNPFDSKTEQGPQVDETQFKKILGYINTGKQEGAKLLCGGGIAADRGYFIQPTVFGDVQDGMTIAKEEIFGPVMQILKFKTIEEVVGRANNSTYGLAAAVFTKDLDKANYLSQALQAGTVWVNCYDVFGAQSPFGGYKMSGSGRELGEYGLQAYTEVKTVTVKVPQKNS
UniProt P28161, sequence (whole entry, looked up): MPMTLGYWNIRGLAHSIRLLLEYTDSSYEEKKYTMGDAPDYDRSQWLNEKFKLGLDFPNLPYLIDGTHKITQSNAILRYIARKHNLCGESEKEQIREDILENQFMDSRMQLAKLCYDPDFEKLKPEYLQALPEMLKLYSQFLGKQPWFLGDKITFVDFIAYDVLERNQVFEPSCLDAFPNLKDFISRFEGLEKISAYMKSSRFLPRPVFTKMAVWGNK

Cc1ccc(-c2cc(C(=O)NN3CCOCC3)c3cc(Br)ccc3n2)o1 — IC50 (TPR (Trypanosoma brucei brucei, UniProt P39051); inhibitor, DTNB-coupled colourimetric; added: substrate at Km): > 100 µM
CN1C[C@H](c2cccc(C(F)(F)F)c2)[C@@H](C(=O)Nc2ccccc2F)C1=O — IC50 (PYRD (Oryza sativa, UniProt Q7XKC8); enzyme activity, inhibitor, absorbance): 0.021 µM
COc1ccc(C(=O)/C=C(\O)C(F)(F)C(F)(F)F)cn1 — IC50 (formate-nitrite transporter (Plasmodium berghei, UniProt A0A509AFP9); L-lactate transport, inhibitor; yeast; pH 6.8, added: 14C-L-lactate 1 mM): 0.79 ± 0.05 µM
Cc1cc(O)c2c(c1)C(=O)c1cc3oc(=O)cc(-c4ccc(O)cc4)c3c(O)c1C2=O — IC50 (mushroom tyrosinase; enzyme activity; added: L-DOPA): > 100 µg/mL
COc1cc(O)c(C(=O)/C=C/c2ccccc2)c(O)c1OC — IC50 (DPP4 (Sus scrofa, UniProt P22411); enzyme activity, inhibitor, absorbance): > 166 µM
COCCCN1CCc2c(Cc3ccc(Cl)cc3)[nH]c3c(OC(F)F)ccc(c23)C1=O — IC50 (PDE7A (Homo sapiens, UniProt Q13946); enzyme activity, inhibitor): > 10 µM
C=C(NC(=O)C(=C)NC(=O)c1csc(C2=NC3c4csc(n4)C4NC(=O)c5csc(n5)C(C(C)(O)C(C)O)NC(=O)C5CSC(=N5)C(=CC)NC(=O)C(C(C)O)NC(=O)c5csc(n5)C3(CC2)NC(=O)C(Cc2ccc(O)cc2)NC(=O)C(=C)NC(=O)C(C)NC(=O)C(C(C)CC)NC2C=Cc3c(C(C)O)cc(nc3C2O)C(=O)OC4C)n1)C(N)=O (stereo not drawn) — IC50 (Proteasome subunit beta type-7, in 20S proteasome (PSMB7, Homo sapiens, UniProt Q99436); trypsin-like activity, inhibitor; purified 20S proteasome; 15 min preincubation, 37 °C, added: Boc-Leu-Arg-Arg-AMC substrate): 0.25 ± 0.02 µM
N#C/C(=C\c1ccc(C(N)=O)cc1)C(N)=O — IC50 (Ribosomal protein S6 kinase alpha-3, C-terminal kinase domain (RPS6KA3, Homo sapiens, UniProt P51812); enzyme activity, inhibitor; 10 mM reduced glutathione, added: 0.1 mM ATP, peptide substrate): 7 µM
CC(=O)NCCN(CC(=O)NCCN(CC(=O)NCCN(CC(=O)NCCC(N)=O)C(=O)C[C@@H](N)Cc1ccccc1)C(=O)C[C@@H](N)CCCNC(=N)N)C(=O)C[C@@H](N)CCCNC(=N)N — IC50 (HIV-1 TAR RNA; Tat/TAR complex displacement, FRET; room temperature, added: 10 nM Tat/TAR complex): 0.7 ± 0.1 µM
CC(C)(C)NCCCNC(=O)c1ccnc(C(F)(F)F)c1 — IC50 (MBT domain-containing protein 1 (Homo sapiens, UniProt Q05BQ5); methyl-lysine reader binding, inhibitor, AlphaScreen): > 100 µM
O=c1c(O)c(-c2ccc(O)cc2O)oc2cc(O)cc(O)c12 — IC50 (CD38 (Homo sapiens, UniProt P28907); cyclase activity, fluorometric; added: NGD+ substrate): 35.4 ± 7.6 µM
C=CC(=O)Nc1ccc(-c2c(-c3ccc(Oc4cccc(C)n4)cc3)c3c(N)ncnc3n2C)cc1 — IC50 (FGFR2; Caliper mobility shift; 30 min preincubation, added: 100 µM ATP): 0.0001 µM
NCCCCCO[C@H]1O[C@H](COS(=O)(=O)O)[C@@H](O[C@@H]2O[C@@H](C(=O)O)[C@@H](O[C@H]3O[C@H](COS(=O)(=O)O)[C@@H](O[C@@H]4O[C@@H](C(=O)O)[C@@H](O[C@H]5O[C@H](COS(=O)(=O)O)[C@@H](O[C@@H]6O[C@@H](C(=O)O)[C@@H](O)[C@H](O)[C@H]6OS(=O)(=O)O)[C@H](O)[C@H]5NS(=O)(=O)O)[C@H](O)[C@H]4OS(=O)(=O)O)[C@H](O)[C@H]3NS(=O)(=O)O)[C@H](O)[C@H]2OS(=O)(=O)O)[C@H](O)[C@H]1NS(=O)(=O)O — IC50 (F10 (Bos taurus, UniProt P00743); enzyme activity, inhibitor, absorbance): 85 µg/mL
Nc1ncc(-c2cnn(C3CCNCC3)c2)cc1-c1nc2ccc(Cl)c(F)c2o1 — IC50 (JAK2 (Homo sapiens, UniProt O60674); enzyme activity, inhibitor, TR-FRET): 4.2 µM
COc1cc(Cc2c[nH]c3ncc(C(F)(F)F)cc23)cc(OC)c1 — IC50 (FGFR2; enzyme activity, inhibitor): 0.009 µM
CCOC(=O)N1CCN(Cc2nc3c(c(=O)n(C)c(=O)n3C)n2CCC(C)C)CC1 — IC50 (ALDH2 (Homo sapiens, UniProt P05091); enzyme activity, inhibitor): > 57 µM
COc1cccc(NCc2cn(-c3ccccc3)nc2-c2ccc(OCc3ccccc3)cc2)c1 — IC50 (PTGS1 (Homo sapiens, UniProt P23219); enzyme activity, inhibitor, absorbance): 104 µM
CSCC[C@H](NC(=O)[C@H](CC(C)C)NC(=O)CNC(=O)[C@@H]1CCCN1C(=O)[C@H](Cc1ccccc1)NC(=O)[C@@H](N)C(C)C)C(=O)N[C@@H](CCC(=O)O)C(=O)N[C@@H](CC(C)C)C(=O)O — IC50 (H-2 class I histocompatibility antigen, K-D alpha chain, 29 (H2-K1, Mus musculus, UniProt P01902); binding, competitor, radioligand competition; purified MHC, mutant peptide, added: radiolabeled standard peptide): > 70 µM
CC1OC(Oc2c(-c3ccc(O)cc3)oc3cc(O)cc(O)c3c2=O)C(OC(=O)C=Cc2ccc(O)cc2)C(O)C1OC(=O)C=Cc1ccc(O)cc1 (stereo not drawn) — IC50 (CCR9 (Homo sapiens, UniProt P51686); calcium flux, antagonist; 293FT GCaMP6 transfected): > 10 µM
COc1ccc(C)cc1S(=O)(=O)Nc1ccc(Cl)c(N2CCCS2(=O)=O)c1 — IC50 (Urea transporter 2, UT-A2 isoform (SLC14A2, Homo sapiens, UniProt Q15849); urea transport, inhibitor; HEK293 transfected with wild-type SLC14A2): 2.78 ± 0.32 µM
COc1ccc(N2CCN(C(=O)c3ccc(Cl)c([N+](=O)[O-])c3)CC2)cc1 — IC50 (SEC14 (Saccharomyces cerevisiae, UniProt P24280); enzyme activity, inhibitor, radiometric): 0.175 µM
COc1cc(OC)cc(-c2nc3ccc(C(=O)NCCCN4CCN(c5cccc(C)c5C)CC4)cc3n2C2CCC2)c1 — IC50 (ACVR1 (Homo sapiens, UniProt Q04771, R206H); binding, NanoBRET; HEK293): 4.45 µM
N=C(CCl)NCCC[C@H](NC(=O)c1ccc(/N=N\c2ccccc2)cc1)c1nc2ccccc2[nH]1 — IC50 (PADI2 (Homo sapiens, UniProt Q9Y2J8); inhibitor, competitive ABPP; 2 h, 37 °C, 30 min preincubation, added: RFA probe 2 µM): 9.1 µM
COc1cccc(/C=C/C(=O)c2cccc(C)c2)c1OC — IC50 (Seed linoleate 13S-lipoxygenase-1 (Glycine max, UniProt P08170); enzyme activity, inhibitor, absorbance): 25.9 µM
CNC(=O)C1CCN(c2cc(C)c(F)cc2NC(=O)c2ccc(-c3cc(O)ccc3C)c(C)c2)CC1 — IC50 (YES1 (Homo sapiens, UniProt P07947); target engagement in cells, BRET): 8.66 µM
CC(=O)[O][Cu+].CN1CCN2CCN(CC1)CCN(Cc1ccccc1)CC2 — IC50 (CXCR4 (Homo sapiens, UniProt P61073); ligand displacement, flow cytometry): 0.0264 µM
O=c1c(-c2ccc(C(F)(F)F)nc2)c[nH]n1-c1ccccn1 — IC50 (EGLN2 (Homo sapiens, UniProt Q96KS0); enzyme activity, inhibitor, europium VBC binding; 10 µM FeSO4, 2 mM ascorbate, added: 20 µM 2-oxoglutarate): 2.1 µM
CC(C)C[C@@H](NC(=O)[C@@H](Cc1ccccc1)NC(=O)[C@H]1CCCN1C(=O)[C@@H](CCC(N)=O)NC(=O)[C@H](NC(=O)[C@H]1CCCN1C(=O)[C@@H](CCCNC(=N)N)NC(=O)[C@@H](CO)NC(=O)[C@@H](CCC(N)=O)NC(=O)[C@@H](CC(=O)O)NC(=O)[C@H](N)[C@H](C)O)C(C)C)C(=O)N[C@H](CC(N)=O)C(=O)N[C@H](CC(C)C)C(=O)N[C@@H](C(=O)N[C@@H](C(=O)N1CCC[C@@H]1C(=O)N[C@H](CCCNC(=N)N)C(=O)N[C@H](CCCCN)C(=O)N1CCC[C@@H]1C(=O)N[C@H](CCCNC(=N)N)C(=O)N1CCC[C@@H]1C(=O)N1CCC[C@@H]1C(=O)N[C@H](CCCNC(=N)N)C(=O)N[C@H](CCCNC(=N)N)C(=O)N[C@H](CCCNC(=N)N)C(=O)N[C@H](CCC(N)=O)C(=O)N[C@H](CCCNC(=N)N)C(=O)N[C@H](CCCNC(=N)N)C(=O)N[C@H](CCCCN)C(=O)N[C@H](CCCCN)C(=O)N[C@H](CCCNC(=N)N)C(=O)NCC(N)=O)[C@H](C)O)[C@H](C)O — IC50 (Mapk14 (Mus musculus, UniProt P47811); enzyme activity, inhibitor, radiometric; pH 7.5): 1.87 µM and 1.8 µM
CNC(=O)c1cc(C)ccc1NC(=O)c1ccc(-c2cc(O)ccc2C)c(C)c1 — IC50 (EPHA4 (Homo sapiens, UniProt P54764); target engagement in cells, BRET): 0.227 µM
CCC(CSCC(NC(=O)CCC(N)C(=O)O)C(=O)NCC(=O)O)C(=O)c1ccc(OCC(=O)NCCCCNC(=O)COc2ccc(C(=O)C(CC)CSCC(NC(=O)CCC(N)C(=O)O)C(=O)NCC(=O)O)c(Cl)c2Cl)c(Cl)c1Cl (stereo not drawn) — IC50 (Glutathione S-transferase Mu 2 (Homo sapiens, UniProt P28161); enzyme activity, inhibitor, CDNB-GSH conjugation; preincubation 2.0 min with enzyme, added: CDNB, GSH): ~0.0075 µM

For quick reference, copied from above:
O=c1c(O)c(-c2ccc(O)cc2O)oc2cc(O)cc(O)c12 — IC50 (CD38 (Homo sapiens, UniProt P28907); cyclase activity, fluorometric; added: NGD+ substrate): 35.4 ± 7.6 µM
COc1ccc(N2CCN(C(=O)c3ccc(Cl)c([N+](=O)[O-])c3)CC2)cc1 — IC50 (SEC14 (Saccharomyces cerevisiae, UniProt P24280); enzyme activity, inhibitor, radiometric): 0.175 µM
N=C(CCl)NCCC[C@H](NC(=O)c1ccc(/N=N\c2ccccc2)cc1)c1nc2ccccc2[nH]1 — IC50 (PADI2 (Homo sapiens, UniProt Q9Y2J8); inhibitor, competitive ABPP; 2 h, 37 °C, 30 min preincubation, added: RFA probe 2 µM): 9.1 µM
COc1ccc(C(=O)/C=C(\O)C(F)(F)C(F)(F)F)cn1 — IC50 (formate-nitrite transporter (Plasmodium berghei, UniProt A0A509AFP9); L-lactate transport, inhibitor; yeast; pH 6.8, added: 14C-L-lactate 1 mM): 0.79 ± 0.05 µM
